Measured values from different studies.
Each line is one published result; not all experiments were run side by side. Values joined by “and” are separate records of one study, mostly repeats; a detail may differ. ± marks the error that the study gave.

SMILES | test | test system | setting | how to read | endpoint | value
C=Cc1ccccc1[B-]12OC(=O)C(c3ccccc3)=N[N+]1=Cc1ccc(N(CC)CC)cc1O2 (stereo not drawn) | UV/vis decay | aqueous buffer | – | – | hydrolysis activation energy | 23.3 kcal/mol
CC[C@H](C)[C@@H]1NC(=O)[C@H](Cc2ccc(O)cc2)NC(=O)CCCSC[C@@H](C(=O)N(CC(=O)N[C@@H](CC(C)C)C(=O)NCC(N)=O)Cc2ccc(F)cc2)NC(=O)[C@H](CC(N)=O)NC(=O)[C@H](CCC(N)=O)NC1=O | – | healthy human, plasma | intranasal, 200 µg every 3 h, after second dose | – | Cmax | 0.119 ng/mL
O=C([O-])CN1CCN(CC(=O)[O-])CCN(CC(CCCc2ccccc2[N+](=O)[O-])N(CC(=O)[O-])CC(=O)[O-])CC1.[177Lu+3] (stereo not drawn) | HPLC | human serum | 37 h, pH 7, 37 °C | – | intact radiolabelled complex | 100%
CN1CCC[C@]1(C)/C=C/S(=O)(=O)NC(=O)Nc1c2c(cc3c1CC(O)C3)CCC2 (stereo partly drawn) | – | human, plasma | oral, 12.5 mg twice daily of parent drug, metabolite of dosed drug | baseline: day 14 over day 1 | AUC(0-24) accumulation ratio | 2.7
C=CC(=O)Nc1cc(Nc2nccc(-c3c[nH]c4ccccc34)n2)c(OC)cc1N(C)CCN(C)C | storage stability | human plasma | 2 h, -80 °C, MQC level | – | recovery | 93.3%
Nc1nc2cnc(C(=O)N3CCOC[C@@H]3c3ccc(C(F)(F)F)cc3)cc2c2c1COC2 | – | dog | oral, 2 mg/kg | – | oral bioavailability | 100%
OCC1OC(n2cnc3c(NCc4ccc(Br)s4)ncnc32)C(O)C1O (stereo not drawn) | – | C57BL/6 mice, male, blood | oral, 3 mg/kg | – | Tmax | 1 to 2 h
C=C(NC(=O)c1csc(-c2nc3c(cc2O)-c2nc(cs2)C(=O)NC(C(C)O)C(=O)NC(=C(C)OC)c2nc(cs2)C(=O)NC2c4nc(cs4)C(=O)NC(COC(=O)c4c5c6c(cccc6n4O)COC(=O)C(OC4CC(C)(O)C(N(C)C)C(C)O4)C2OC5)c2nc-3cs2)n1)C(N)=O (stereo not drawn) | – | ICR mice, Streptococcus pneumoniae ATCC 49169 infected, immunocompromised, blood | intravenous, 2 mg/kg/day three times daily | – | AUC(0-inf) | 191 ng·h/mL
C=Cc1ccccc1[B-]12OC(=O)C(c3ccccc3)=N[N+]1=C(CC)c1ccc(N(CC)CC)cc1O2 (stereo not drawn) | UV/vis decay | aqueous buffer | – | – | hydrolysis activation energy | 23.8 kcal/mol
C[N+](C)(CCOCCOCCOCCNC(=S)Nc1ccc(C[C@H]2CN(CC(=O)[O-])CCN(CC(=O)[O-])CCN2CC(=O)[O-])cc1)C[c-]1cccc1.[64Cu+2].[Fe+2].c1cc[cH-]c1 | – | human adult male, stomach wall | extrapolated from mouse biodistribution | – | absorbed dose | 2.51 µSv/MBq
Cc1ccc(CN2C(=O)/C(=N\c3ccc(Cl)cc3Br)c3ccccc32)cc1 | – | mouse, blood | 200 mg/kg | – | haemoglobin | 147 ± 4.12 g/L
Cc1nn(-c2nc3c(F)cc(F)cc3s2)c(O)c1C(c1ccc(C(F)(F)F)cc1)c1c(C)nn(-c2nc3c(F)cc(F)cc3s2)c1O | – | ICR mouse, plasma | intravenous, 5 mg/kg | – | terminal half-life | 4.36 h and 8.85 h and 13.4 h
O=C([O-])CN1CCN(CC(=O)[O-])CCN(CC(=O)NC[C@H]2CC[C@H](C(=O)N[C@H](Cc3cnc4ccccc4c3)C(=O)NCCCC[C@H](NC(=O)N[C@@H](CCC(=O)O)C(=O)O)C(=O)O)CC2)CCN(CC(=O)[O-])CC1.[64Cu+2] | ex vivo gamma counting | 22Rv1 tumour-bearing mice, liver | intravenous, 0.74 MBq, 1 h post-injection | – | tissue uptake | 19.2 %ID/g
CC(C)C[C@H](NC(=O)[C@@H](CCCCNC(=O)[C@@H](Cc1ccccc1)NC(=O)CCCCCCCNC(=O)CN1CCN(CC(=O)O)CCN(CC(=O)O)CCN(CC(=O)O)CC1)NC(=O)[C@H](Cc1ccc(O)cc1)NC(=O)[C@H](CO)NC(=O)[C@H](Cc1c[nH]c2ccccc12)NC(=O)[C@H](Cc1c[nH]cn1)NC(=O)[C@@H]1CCC(=O)N1)C(=O)N[C@@H](CCCNC(=N)N)C(=O)N1CCC[C@H]1C(=O)NCC(N)=O [indium-111 labelled] | biodistribution | male athymic nude mice, DU-145 prostate cancer xenograft, bone | intravenous, 0.037 MBq, 1 h post-injection | – | tissue uptake | 0.88 ± 0.42 %ID/g
O=C(Nc1cnccc1-c1ccc([18F])nc1)c1ccnc(NC(=O)C2CC2)c1 | – | FVB/NJ mice, both sexes, brain | intravenous, 25 min, median, no P-gp inhibitor | – | SUV | 0.084
CN1CCC[C@]1(C)/C=C/S(=O)(=O)NC(=O)Nc1c2c(cc3c1C(O)CC3)CCC2 (stereo partly drawn) | – | human, plasma | oral, 12.5 mg twice daily of parent drug, metabolite of dosed drug | baseline: day 14 over day 1 | AUC(0-24) accumulation ratio | 1.8
CC(C)(O)c1ncc([S@](N)(=O)=NC(=O)Nc2c3c(cc4c2CCC4)CCC3)s1 | – | healthy human | oral, 10 mg single dose, capsule formulation | – | gastrointestinal adverse events | 17%
CN1C(=O)[C@@H](Cc2ccc(O)c(I)c2)NC(=O)CNC(=O)[C@H](Cc2ccc3ccccc3c2)NC(=O)[C@H](CCCNC(=N)N)NC(=O)[C@H]1CCCNC(=O)c1ccc(CNC(=O)CN2CCN(CC(=O)O)CCN(CC(=O)O)CCN(CC(=O)O)CC2)cc1 [lutetium-177 labelled] | 1 | human, extrapolated from mouse, Upper large intestine wall | – | – | total absorbed dose | 0.04 mGy/MBq
C[C@]12C[C@H](c3ccc(S(C)(=O)=O)cc3)C3=C4CCC(=O)C=C4CC[C@H]3[C@@H]1CC[C@@]2(O)C(F)(F)C(F)(F)F | item: compound (parent) | healthy human volunteers, pooled plasma | oral, 5 mg daily, day 28, 312 h | – | plasma concentration | 0.188 ng/mL
Cc1cc(-c2ccc(C(=O)[C@@H]3CCCC[C@H]3C(=O)Nc3cnn4c3C(=O)NCC4)cc2)[nH]n1 | – | human, faeces | oral, 200 mg, 0-48 h | baseline: dose | cumulative recovery of radioactivity | 24.4%
CC(=O)N([O-])CCCCCNC(=O)CCC(=O)N([O-])CCCCCNC(=O)CCC(=O)N([O-])CCCCCN.[89Zr+4] | radio-TLC | aqueous buffer | 7 d, pH 7.2, 37 °C, 89Zr-labelled complex, together with: NiCl2 10-fold excess | – | intact complex | 98.6 ± 1.6%
COc1ccc2c(c1)CCn1c[n+]3c(c1-2)-c1ccc(OC)cc1CC3 | – | female NSG mice, blood | 6 mg/kg, day 20, 5 days per week | – | mean corpuscular volume | 48.9 ± 1.86 fL
O=C(Nc1cnccc1-c1ccc([18F])cc1)c1ccnc(NC(=O)C2CC2)c1 | ex vivo gamma counting | GSK-3β transgenic mice, late-stage, cerebellum | intravenous, 120 min, mean, P-gp inhibitor pretreatment, together with: tariquidar 15 mg/kg iv | – | SUV | 0.21
Cc1nc(N)nc2c1C(=O)N[C@@H](c1ccc(F)cc1-c1cccc(O[11CH3])n1)C2 | radioligand, ex vivo biodistribution | healthy mouse, carcass | 60 min p.i. | – | tracer uptake | 46.9 ± 4.6 %ID
COc1ccc2c(c1)C(C)(C)C(/C=C/C1=C(Oc3ccc(C(=O)NCCCCOc4cc(CN(Cc5ccccn5)Cc5ccccn5)cc(CN(Cc5ccccn5)Cc5ccccn5)c4)cc3)C(=C/C=C3/N(CCCCS(=O)(=O)[O-])c4ccc(OC)cc4C3(C)C)CCC1)=[N+]2CCCCS(=O)(=O)[O-].O=[N+]([O-])[O-].O=[N+]([O-])[O-].[99Tc+].[C-]#[O+].[C-]#[O+].[C-]#[O+].[Zn+2] | – | BALB/c mouse, Staphylococcus aureus myositis, bone | 12 h | – | tissue uptake | 0.79 %ID/g and 0.54 %ID/g and 1.01 %ID/g and 1.09 %ID/g
CN(C)C(=O)c1ccc(N2Cc3cn(Cc4ccc(F)cc4)nc3C2)cc1 | metabolic stability | human, liver microsomes | – | – | half-life | 0.6 h
CCCCN1C(=O)c2cccc3c(NCCCCCCCCCCN4CCOCC4)ccc(c23)C1=O | – | chloroform | – | – | fluorescence lifetime | 9.8 ns

Repeated from above:
SMILES | test | test system | setting | how to read | endpoint | value
O=C(Nc1cnccc1-c1ccc([18F])cc1)c1ccnc(NC(=O)C2CC2)c1 | ex vivo gamma counting | GSK-3β transgenic mice, late-stage, cerebellum | intravenous, 120 min, mean, P-gp inhibitor pretreatment, together with: tariquidar 15 mg/kg iv | – | SUV | 0.21
CC(C)(O)c1ncc([S@](N)(=O)=NC(=O)Nc2c3c(cc4c2CCC4)CCC3)s1 | – | healthy human | oral, 10 mg single dose, capsule formulation | – | gastrointestinal adverse events | 17%
CC[C@H](C)[C@@H]1NC(=O)[C@H](Cc2ccc(O)cc2)NC(=O)CCCSC[C@@H](C(=O)N(CC(=O)N[C@@H](CC(C)C)C(=O)NCC(N)=O)Cc2ccc(F)cc2)NC(=O)[C@H](CC(N)=O)NC(=O)[C@H](CCC(N)=O)NC1=O | – | healthy human, plasma | intranasal, 200 µg every 3 h, after second dose | – | Cmax | 0.119 ng/mL
COc1ccc2c(c1)CCn1c[n+]3c(c1-2)-c1ccc(OC)cc1CC3 | – | female NSG mice, blood | 6 mg/kg, day 20, 5 days per week | – | mean corpuscular volume | 48.9 ± 1.86 fL
